Experimental data from different studies.
Protocols differ between the studies behind these lines. “And” joins repeats or separate records; there may be more than shown. ± marks the error that the study gave.
B1: CFH domains 1108-1231 L1189R (Homo sapiens, UniProt P08603); sequence looked up; chain KCGPPPPIDNGDITSFPLSVYAPASSVEYQCQNLYQLEGNKRITCRNGQWSEPPKCLHPCVISREIMENYNIALRWTAKQKRYSRTGESVEFVCKRGYRLSSRSHTLRTTCWDGKLEYPTCAKR
B2: RSPO4 32-137 Q65R (Homo sapiens, UniProt Q2I0M5); chain GGNCTGCIICSEENGCSTCQQRLFLFIRREGIRRYGKCLHDCPPGYFGIRGQEVNRCKKCGATCESCFSQDFCIRCKRQFYLYKGKCLPTCPPGTLAHQNTRECQGGGGGSGGGGSGGGGS
B3: PUX5 (Arabidopsis thaliana, UniProt Q7Y175); chain MATETNENLINSFIEITSSSREEANFFLESHTWNLDAAVSTFLDNDAAAAAEPNPTGPPPPSSTIAGAQSPSQSHSPDYTPSETSPSPSRSRSASPSSRAAPYGLRSRGGAGENKETENPSGIRSSRSRQHAGNIRTFADLNRSPADGEGSDSDEANEYYTGGQKSGMMVQDPKKVKDVDELFDQARQSAVDRPVEPSRSASTSFTGAARLLSGEAVSSSPQQQQQEQPQRIMHTITFWLNGFTVNDGPLRGFSDPENAAFMNSISRSECPSELEPADKKIPVHVDLVRRGENFTEPPKPKNPFQGVGRTLGASGSGSSSAPQASSAPMNVAPAPSRGLVVDPAAPTTSIQLRLADGTRLVSRFNNHHTVRDVRGFIDASRPGGSKEYQLLTMGFPPKQLTELDQTIEQAGIANAVVIQKF
Sequence of UniProt Q64663 (whole entry, unmodified, looked up): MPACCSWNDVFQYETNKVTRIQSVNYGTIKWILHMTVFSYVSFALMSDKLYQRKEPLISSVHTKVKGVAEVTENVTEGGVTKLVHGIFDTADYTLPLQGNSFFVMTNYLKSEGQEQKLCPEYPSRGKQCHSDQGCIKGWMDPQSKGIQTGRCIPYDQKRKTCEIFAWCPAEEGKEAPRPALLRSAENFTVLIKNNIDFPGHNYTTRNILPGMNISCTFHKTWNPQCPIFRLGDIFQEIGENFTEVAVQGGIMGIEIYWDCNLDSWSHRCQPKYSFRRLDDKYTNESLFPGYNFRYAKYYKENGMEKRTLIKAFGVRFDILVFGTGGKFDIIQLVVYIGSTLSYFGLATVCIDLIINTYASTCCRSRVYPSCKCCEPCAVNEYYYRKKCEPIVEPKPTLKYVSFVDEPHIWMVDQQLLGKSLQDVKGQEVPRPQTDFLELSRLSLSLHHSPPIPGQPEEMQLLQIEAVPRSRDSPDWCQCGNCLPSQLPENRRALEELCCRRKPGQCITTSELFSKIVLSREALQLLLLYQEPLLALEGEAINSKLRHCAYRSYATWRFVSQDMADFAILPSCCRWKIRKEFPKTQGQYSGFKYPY
Sequence of UniProt P26039 (whole entry, looked up): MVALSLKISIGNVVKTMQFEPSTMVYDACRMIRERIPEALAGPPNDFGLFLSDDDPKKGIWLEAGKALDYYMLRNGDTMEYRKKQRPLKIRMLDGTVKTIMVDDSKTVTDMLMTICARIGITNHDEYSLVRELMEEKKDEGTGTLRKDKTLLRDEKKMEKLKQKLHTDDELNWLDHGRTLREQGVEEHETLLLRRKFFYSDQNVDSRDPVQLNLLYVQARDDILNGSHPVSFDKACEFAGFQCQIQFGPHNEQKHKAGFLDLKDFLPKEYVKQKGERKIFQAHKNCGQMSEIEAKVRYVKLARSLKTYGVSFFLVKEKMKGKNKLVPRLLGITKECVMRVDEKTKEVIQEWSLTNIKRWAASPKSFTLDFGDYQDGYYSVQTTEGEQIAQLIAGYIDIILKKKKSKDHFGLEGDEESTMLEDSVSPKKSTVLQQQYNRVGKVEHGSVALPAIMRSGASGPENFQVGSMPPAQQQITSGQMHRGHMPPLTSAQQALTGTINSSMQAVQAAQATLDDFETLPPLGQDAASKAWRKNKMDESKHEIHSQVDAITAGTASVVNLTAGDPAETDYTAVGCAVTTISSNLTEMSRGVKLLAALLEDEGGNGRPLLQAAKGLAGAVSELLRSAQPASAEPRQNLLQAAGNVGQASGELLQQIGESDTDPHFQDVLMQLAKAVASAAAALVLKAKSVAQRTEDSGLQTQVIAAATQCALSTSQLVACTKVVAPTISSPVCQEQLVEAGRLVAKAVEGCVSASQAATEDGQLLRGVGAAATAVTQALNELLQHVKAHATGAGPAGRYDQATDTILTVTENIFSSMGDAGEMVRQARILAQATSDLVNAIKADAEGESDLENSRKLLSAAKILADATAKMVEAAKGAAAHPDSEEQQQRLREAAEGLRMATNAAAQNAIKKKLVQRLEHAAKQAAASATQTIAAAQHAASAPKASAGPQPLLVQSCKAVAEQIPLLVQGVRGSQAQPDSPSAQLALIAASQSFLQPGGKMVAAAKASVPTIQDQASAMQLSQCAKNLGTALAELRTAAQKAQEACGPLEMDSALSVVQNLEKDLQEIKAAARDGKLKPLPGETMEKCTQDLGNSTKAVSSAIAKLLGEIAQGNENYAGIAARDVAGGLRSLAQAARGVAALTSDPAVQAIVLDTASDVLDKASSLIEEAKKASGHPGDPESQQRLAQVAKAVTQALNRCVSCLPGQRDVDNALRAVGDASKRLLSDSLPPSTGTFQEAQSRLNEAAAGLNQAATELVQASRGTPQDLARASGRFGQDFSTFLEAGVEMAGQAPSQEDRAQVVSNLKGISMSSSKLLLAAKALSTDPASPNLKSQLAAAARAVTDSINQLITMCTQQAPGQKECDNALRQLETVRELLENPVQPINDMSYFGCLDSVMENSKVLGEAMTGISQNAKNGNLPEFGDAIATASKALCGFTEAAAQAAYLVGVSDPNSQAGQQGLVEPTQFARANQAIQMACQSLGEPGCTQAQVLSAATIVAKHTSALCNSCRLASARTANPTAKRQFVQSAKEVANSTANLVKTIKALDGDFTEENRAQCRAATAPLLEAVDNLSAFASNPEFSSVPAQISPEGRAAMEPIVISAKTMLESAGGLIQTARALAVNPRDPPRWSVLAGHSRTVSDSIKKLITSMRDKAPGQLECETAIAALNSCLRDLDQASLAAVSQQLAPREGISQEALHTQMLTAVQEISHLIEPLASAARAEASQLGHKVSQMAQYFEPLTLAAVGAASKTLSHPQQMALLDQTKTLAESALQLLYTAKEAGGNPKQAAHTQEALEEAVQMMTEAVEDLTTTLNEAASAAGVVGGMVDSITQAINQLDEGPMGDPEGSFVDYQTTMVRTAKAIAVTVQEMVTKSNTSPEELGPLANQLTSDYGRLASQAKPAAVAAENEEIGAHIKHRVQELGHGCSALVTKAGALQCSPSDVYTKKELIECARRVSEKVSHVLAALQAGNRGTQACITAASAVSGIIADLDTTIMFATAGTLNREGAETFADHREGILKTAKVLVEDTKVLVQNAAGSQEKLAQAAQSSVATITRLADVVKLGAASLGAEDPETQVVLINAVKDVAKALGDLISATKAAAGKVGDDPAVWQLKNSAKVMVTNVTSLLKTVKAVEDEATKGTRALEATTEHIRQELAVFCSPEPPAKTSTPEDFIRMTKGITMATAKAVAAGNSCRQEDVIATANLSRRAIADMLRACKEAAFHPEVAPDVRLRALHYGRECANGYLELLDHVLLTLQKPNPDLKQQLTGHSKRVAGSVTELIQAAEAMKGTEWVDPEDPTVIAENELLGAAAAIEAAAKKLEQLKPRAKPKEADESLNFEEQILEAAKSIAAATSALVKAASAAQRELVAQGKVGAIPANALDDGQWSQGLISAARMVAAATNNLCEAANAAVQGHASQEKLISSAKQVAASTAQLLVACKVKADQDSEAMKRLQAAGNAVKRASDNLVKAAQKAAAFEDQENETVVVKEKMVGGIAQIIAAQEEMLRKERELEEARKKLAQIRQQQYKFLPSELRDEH
Sequence of UniProt Q9WTS8 (whole entry, looked up): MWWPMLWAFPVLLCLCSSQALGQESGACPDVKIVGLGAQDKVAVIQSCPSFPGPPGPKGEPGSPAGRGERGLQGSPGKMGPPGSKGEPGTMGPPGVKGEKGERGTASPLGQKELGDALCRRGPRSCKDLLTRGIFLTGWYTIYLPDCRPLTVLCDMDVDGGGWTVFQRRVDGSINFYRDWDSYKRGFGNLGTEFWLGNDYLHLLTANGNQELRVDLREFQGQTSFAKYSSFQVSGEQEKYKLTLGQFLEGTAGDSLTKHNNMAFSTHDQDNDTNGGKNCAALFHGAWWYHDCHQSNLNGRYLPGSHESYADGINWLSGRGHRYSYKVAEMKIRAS
Sequence of UniProt P01024 (whole entry, looked up): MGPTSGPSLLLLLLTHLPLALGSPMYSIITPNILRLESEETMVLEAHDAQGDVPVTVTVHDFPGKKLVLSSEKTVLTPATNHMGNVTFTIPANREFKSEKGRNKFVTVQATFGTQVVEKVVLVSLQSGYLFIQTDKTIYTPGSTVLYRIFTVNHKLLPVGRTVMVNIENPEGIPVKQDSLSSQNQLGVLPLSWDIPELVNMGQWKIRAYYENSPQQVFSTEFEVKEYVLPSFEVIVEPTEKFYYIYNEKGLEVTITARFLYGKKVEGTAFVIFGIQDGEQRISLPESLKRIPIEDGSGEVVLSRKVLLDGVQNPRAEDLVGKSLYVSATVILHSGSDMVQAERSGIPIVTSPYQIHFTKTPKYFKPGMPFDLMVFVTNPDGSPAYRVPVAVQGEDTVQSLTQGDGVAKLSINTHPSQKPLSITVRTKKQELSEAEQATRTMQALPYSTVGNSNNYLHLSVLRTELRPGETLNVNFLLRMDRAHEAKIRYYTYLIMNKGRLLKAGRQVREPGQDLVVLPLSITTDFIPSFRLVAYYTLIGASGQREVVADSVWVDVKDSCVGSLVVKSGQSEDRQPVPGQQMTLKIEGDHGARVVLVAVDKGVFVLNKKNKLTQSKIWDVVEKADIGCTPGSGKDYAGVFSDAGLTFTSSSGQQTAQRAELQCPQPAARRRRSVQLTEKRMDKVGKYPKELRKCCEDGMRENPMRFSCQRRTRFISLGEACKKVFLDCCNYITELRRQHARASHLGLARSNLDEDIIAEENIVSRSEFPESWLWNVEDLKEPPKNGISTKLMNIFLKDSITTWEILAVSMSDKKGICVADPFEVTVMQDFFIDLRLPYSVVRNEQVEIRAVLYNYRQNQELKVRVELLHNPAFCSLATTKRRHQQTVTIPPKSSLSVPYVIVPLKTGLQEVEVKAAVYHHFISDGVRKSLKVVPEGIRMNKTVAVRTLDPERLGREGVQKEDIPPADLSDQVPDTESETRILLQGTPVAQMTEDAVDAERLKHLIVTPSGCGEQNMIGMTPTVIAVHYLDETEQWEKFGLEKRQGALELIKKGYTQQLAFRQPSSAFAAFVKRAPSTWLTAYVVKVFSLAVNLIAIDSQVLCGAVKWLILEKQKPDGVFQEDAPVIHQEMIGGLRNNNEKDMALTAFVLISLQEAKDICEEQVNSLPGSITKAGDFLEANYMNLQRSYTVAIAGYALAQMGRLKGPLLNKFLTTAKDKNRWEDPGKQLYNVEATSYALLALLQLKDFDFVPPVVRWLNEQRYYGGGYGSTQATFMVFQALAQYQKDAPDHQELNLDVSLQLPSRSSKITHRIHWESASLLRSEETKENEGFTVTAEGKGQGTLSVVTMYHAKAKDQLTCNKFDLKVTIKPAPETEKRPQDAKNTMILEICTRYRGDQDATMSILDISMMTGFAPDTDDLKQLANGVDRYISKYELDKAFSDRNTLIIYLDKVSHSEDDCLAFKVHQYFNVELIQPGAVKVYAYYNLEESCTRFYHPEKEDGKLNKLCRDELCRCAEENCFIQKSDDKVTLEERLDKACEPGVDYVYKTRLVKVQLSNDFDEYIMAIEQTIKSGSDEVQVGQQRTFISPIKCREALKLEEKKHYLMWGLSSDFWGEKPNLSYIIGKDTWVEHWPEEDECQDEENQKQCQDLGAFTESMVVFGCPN

Under “normalised SPR binding response”, `EKPIDSETKM` is recorded as 0 normalised RU (human SCRIB PDZ3-4 tandem (MBP fusion); surface plasmon resonance; peptide; concentration not given; higher = stronger binding).
With `Peginesatide` the phosphorylation level was 3.4 fold (UT7/EPO; tyrosine phosphorylation, LC-MS/MS phosphoproteomics, GluC, item: PLCG1 tyrosine 775; 10 nM, 15 min, with: 10 U/mL EPO; relative to: vehicle).
With `colistin` the MIC was 1 µg/mL (Pseudomonas aeruginosa; clinical isolate RKI 628/16).
With `ABL1 fragment (Homo sapiens)` the Kd was 85.5 µM (CRK 245-259, pY251 (Homo sapiens); ITC).
Under “rate constant k-4”, `11-deoxycorticosterone` is recorded as 24.8 min⁻¹ (human CYP11B2; substrate, stopped-flow kinetics; 4-state closed model, with: adrenodoxin 10-fold excess).
The Kd of `KLLITIHDRKEFAKFEEEKARAKWDTANNPLYKEATSTFTNITYRGT (ITGB3 742-788 R734K (Homo sapiens, UniProt P05106); sequence looked up)` is reported as 374 µM (Tln1 309-405 (Mus musculus, UniProt P26039); NMR titration).
`petF ferredoxin (Synechocystis sp. PCC 6803, UniProt P27320)` has a Kd of 25.4 ± 14.6 µM (narB C148A (Synechococcus sp. PCC 7942); UV-visible difference titration).
With `LPDTDDRHRIEEKRKRTYETFKSIMKKSPFNGP (Rela 289-321 (Mus musculus, UniProt Q04207); sequence looked up)` the Kd was 1.16 ± 0.013 µM (NFKBIA 67-206 (Homo sapiens, UniProt P25963); ITC; peptide; NaCl 150 mM).
The normalized current of `BzATP` is reported as 0 (P2X purinoceptor 7 (P2rx7, Rattus norvegicus, UniProt Q64663, I214A/Q143A/R125A); ion current, agonist, two-electrode voltage clamp; Xenopus oocytes; 3.7 µM).
For `ficolin-A mature (Rattus norvegicus, UniProt Q9WTS8)`, the Kd was 0.028 µM (C1r/C1s full-length tetramer (Homo sapiens); SPR; with: CaCl2 140 mM).
`LKEKHKILHRLLQDSSSPV (NCOA2 peptide; N-terminal 5-FAM)` has a Kd of 18 µM and 27.6 µM (PPARG 202-477 (Homo sapiens, UniProt P37231-2); FP; peptide).
The Kd of `B1 (CFH domains 1108-1231 L1189R)` is reported as 2.4 ± 0.06 µM (C3 996-1303 (Homo sapiens, UniProt P01024); SPR).
For `SDEMPNNAKRRRRSQSMIANKRIHQAFQEDEGDEDWEEEEHKPKAKRR (abo1 25-72 (Schizosaccharomyces pombe, UniProt O14114))`, the Kd was 20 ± 2.5 µM (spt16 1-442 K264E/F364A/R365E (Schizosaccharomyces pombe, UniProt O94267); BLI).
For `JAZ10 C-terminal domain (Arabidopsis thaliana)`, the Kd was 90.55 ± 0.64 µM (MYC3 5-242, Alexa Fluor 488 label (Arabidopsis thaliana, UniProt Q9FIP9); MST; 200 nM, labelled protein).
`B2 (RSPO4 32-137 Q65R)` gave a Kd of 0.0008 µM (LGR6 (Homo sapiens, UniProt Q9HBX8); whole-cell binding saturation; Fc fusion, HEK293T).
With `B3 (PUX5)` the Kd was 0.41 ± 0.03 µM (CDC48A 1-463 (Arabidopsis thaliana, UniProt P54609); BLI; 25 °C).

Excerpt of the above:
With `colistin` the MIC was 1 µg/mL (Pseudomonas aeruginosa; clinical isolate RKI 628/16).
